Published values pooled from the literature.
Protocols differ between the studies behind these lines. Values joined by “and” are separate records of one study, mostly repeats; a detail may differ. ± gives the spread as reported.

`N[C@@H](CCC(=O)N[C@@H](CS[Se]Cc1ccc(-c2cc(C(F)(F)F)nn2-c2ccc(S(N)(=O)=O)cc2)cc1)C(=O)NCC(=O)O)C(=O)O` has a sub-G0/G1 cells of 4.7 fold (UACC-903 melanoma; propidium iodide flow cytometry; 25 µM, 72 h; baseline: untreated).
`COc1cc(CNC(=O)C[C@H](C)CCC=C(C)C)ccc1OCc1cn(-c2ccc(Cl)c(Cl)c2)nn1` has a growth percent of 77.4% (Malme-3M melanoma cells; SRB; 10 µM, 48 h).
`O=C(NCCCCc1ccccc1)n1c(=O)oc2cc(-c3ccc(F)cc3)ccc21` — result for “ceramide d18:1/16:0 level”: “increased” (SW-403 and RAW264.7; 0.1 to 20 µM, 3 h).
For `[Cl][Pt-]1([Cl])[S]C(Nc2ccccc2)=N[N+]1=Cc1ccc(-c2ccccc2)s1`, the cytotoxic concentration was 100 µM (HEL human lung fibroblasts; altered cell morphology, microscopy; confluent cultures).
With `CCC(=C(c1ccc(Cl)cc1)c1ccc(OCCN(C)C)cc1)c1ccc(Cl)cc1` the growth inhibition was 35.2% (NCI-60 tumour cell lines; 10 µM, mean over cell lines).
Under E-cadherin expression, `COc1cc2c(OC3OCC(OC)C(OC)C3OC(=O)c3ccc(Br)cc3)c3c(c(-c4ccc5c(c4)OCO5)c2cc1OC)C(=O)OC3` (stereo not shown) is recorded as “no effect” (CAL-27 and FaDu; western blot and RT-qPCR, measured: E-cadherin mRNA and protein; 0.1, 1, 2 µM, 36 h, with: bafilomycin A1 0.1 µM).
For `CCCCCCCCCCCCCCOc1c(O)cc(C(=O)O[C@@H]2Cc3c(O)cc(O)cc3O[C@@H]2c2cc(O)c(O)c(O)c2)cc1O`, phosphorylation level read “decreased” (U-87 MG; Western blot, measured: phospho-mTOR; 50 µM, 24 h; baseline: untreated).
`CC1=CC(C)=[N+]2C1=C(CCCCc1cn(C[C@@H]3[C@@H](O)[C@H](O)[C@@H](O)[C@@H]4O[C@H]34)nn1)c1c(C)cc(C)n1[B-]2(F)F`: “labelled enzyme stability time” no less than 48 h (human monocyte-derived macrophages; activity-based probe, measured: recombinant GBA).
The IC50 ratio of `Cc1cc(Cl)cc(-c2ccnc3cc(CN4C(=O)C5C(C4=O)C5(C)C)sc23)c1C[C@@H]1CNCCO1` (stereo partly shown) is reported as 15 to 16 fold (CHP-212 USP7 V517F knock-in; SRB; baseline: knock-in over wild type).
`CCNc1cc2c(cc1C)C1(c3cc(C)c(NCC)cc3O2)c2ccccc2C(=O)N1N=Cc1c[c-]c(-c2ccccn2)cc1.Cc1c(C)c(-c2ccc(-c3ccccc3)cc2)[c-](C)c1C.[Cl-].[Ir+3]`: “JC-1 monomer cells” 3.86% (A549; JC-1 flow cytometry; 2.0 × IC50, 24 h).
With `CC[C@H](C)[C@H](NC(=O)[C@@H](NC(=O)[C@@H](NC(=O)[C@@H](N)C(C)C)C(C)C)[C@@H](C)CC)C(N)=O` the viability was 78.6% (PC-12; Aβ42-induced neurotoxicity, inhibitor, MTT; concentration not given, 6 h, 37 °C, peptide to Aβ42 1:1, with: Aβ42 2 µM; baseline: untreated cells).
`COc1cc(CNC(=O)C[C@H](C)CCC=C(C)C)ccc1OCc1cn(-c2ccccc2F)nn1` gave a growth percent of 94% (UACC-257 melanoma cells; SRB; 10 µM, 48 h).
`O=Cc1c(O)ccc2ccccc12`: “log2 fold change” -3.16 (HUVEC; RNA sequencing, measured: GBP4; 75 µM, 24 h; baseline: DMSO).
Under “early apoptotic cells”, `O=C1OCC2=C1C(c1cccc(Br)c1)C1=C(N2)C(=O)c2ccccc2C1=O` (stereo not shown) is recorded as 14% (SK-LU-1 cells; annexin V/PI; 0.32 µM, 24 h).
For `O=C(Nc1ccccc1)c1ccc(Nc2nnc(-c3ccc(O)cc3)c3ccccc23)cc1`, anandamide uptake read “inhibited” (wild-type mouse cortical neurons; inhibitor; 10 µM, with: [3H]-anandamide).
`CC(=O)Oc1ccccc1C(=O)[O][Pt]([NH2])([NH2])([Cl])([Cl])[O]C(=O)CCCc1ccccc1` gave a selectivity index of 2 (HEK293 and LoVo; cytotoxicity, MTT; baseline: IC50 HEK293 over IC50 LoVo).
For `Nc1ncc(-c2cnn(C3CCNCC3)c2)cc1-c1nc2ccc(O)cc2o1`, “early apoptotic cells” read 23.6% (HEL 92.1.7; annexin V/PI flow cytometry; 10 µM, 48 h).
With `Cc1ccc(-c2cn([C@H]3C[C@H](O)[C@@H](CO)O3)c3ncnc(N)c23)cc1Cl` the EC50 was 112 ± 11 µM (HEK; cytotoxicity).
`COc1cc(CNC(=O)C[C@H](C)CCC=C(C)C)ccc1O` gave a growth percent of 99.9% (OVCAR-8 ovarian cancer cells; SRB; 10 µM, 48 h).
`CC(/C=C/C(=O)NO)=C\[C@@H](C)C(=O)c1ccc(N(C)C)cc1`: ERK phosphorylation “decreased” (H1975; Western blot; 10 µM).
`CC(Cc1ccc(Cl)cc1)=C(c1ccc(Cl)cc1)c1ccc(OCCN2CCOCC2)cc1` gave a growth inhibition of 0.12% (NCI-60 tumour cell lines; 10 µM, mean over cell lines).
`COc1cc(CNC(=O)C[C@H](C)CCC=C(C)C)ccc1OCc1cn(-c2ccccc2[N+](=O)[O-])nn1` gave a growth percent of 70.3% (Malme-3M melanoma cells; SRB; 10 µM, 48 h).
`CC(Cc1ccc(Cl)cc1)=C(c1ccc(Cl)cc1)c1ccc(OCCCN(C)C)cc1` has a growth inhibition of 4.88% (NCI-60 tumour cell lines; 10 µM, mean over cell lines).
`CN1CCC(N[C@@H]2CCc3[nH]c4c(C(N)=O)ccc(-c5ccccc5Cl)c4c3C2)CC1`: “increase in apoptotic cells” 33.2% (HCT-116 wild type; annexin V-FITC/PI; 50 nM).
Under “inhibition of basal glucose uptake”, `CNC(=O)c1ccccc1Oc1nc(Nc2cc(OC)c(OC)c(OC)c2)ncc1Br` is recorded as greater than 50% (C2C12 myotubes; measured: 2-deoxyglucose; 10 µM).
For `Nc1c(S(=O)(=O)O)cc(Nc2cccc(S(N)(=O)=O)c2)c2c1C(=O)c1ccccc1C2=O`, mRNA level read “decreased” (primary mouse articular chondrocytes; real-time PCR, measured: Phlpp1; 25 µM).
For `O=[N+]([O-])c1ccc(NC2=N[N+](=Cc3cccs3)[Pd-]([Cl])([Cl])[S]2)cc1`, the cytotoxic concentration was greater than 100 µM (HEL human lung fibroblasts; altered cell morphology, microscopy; confluent cultures).
For `COc1cc(CNC(=O)C[C@H](C)CCC=C(C)C)ccc1OCc1cn(-c2ccc([N+](=O)[O-])cc2)nn1`, the growth percent was 107% (HCC 2998; SRB; 10 µM, 48 h).
`Nc1ncnc2c1c(-c1ccc(C(F)(F)F)c(Cl)c1)cn2[C@@H]1O[C@H](CO)[C@@H](O)[C@H]1O` gave an EC50 of greater than 200 µM (HEK; cytotoxicity).
The selectivity ratio of `O=C1c2ccc(O)cc2OC1(O)Cc1ccc(O)c(O)c1` (stereo not shown) is reported as greater than 9.41 (MRC5 over HL-60; cytotoxicity, MTT; 72 h; baseline: IC50 MRC5 over IC50 HL-60).
The cell count of `COc1ccc([C@@H]2CC(=O)c3c(O)cc(O[C@@H]4O[C@H](CO[C@@H]5O[C@@H](C)[C@H](O)[C@@H](O)[C@H]5O)[C@@H](O[C@H]5O[C@H](CO)[C@@H](O)[C@H](O)[C@H]5O)[C@H](O)[C@H]4O)cc3O2)cc1O` is reported as 13300 ± 608 (MRC5; trypan blue exclusion; 150 µg/mL, 72 h).
For `CC(=O)O[C@H]1CC[C@]2(C)[C@H]3C(=O)C=C4[C@@H]5C[C@@](C)(C(=O)OCc6ccccc6)CC[C@]5(C)CC[C@@]4(C)[C@]3(C)CC[C@H]2C1(C)C`, the apoptotic cells was 11.7% (HepG2; annexin V/7-AAD flow cytometry; 4 µM, 24 h).
The cytokine level of `CC(=O)N[C@H](C(=O)N[C@H](C(=O)N[C@@H](CCCNC(=N)N)C(=O)N1Cc2ccccc2C[C@H]1C(=O)N[C@@H](Cc1ccccc1)C(N)=O)C1CCCCC1)C(C)C` is reported as 11.8 ± 4.3 pg/mL (MBP-specific BC-3 T cells; Bio-Plex multiplex, measured: G-CSF; 200 µg/mL, 24 h, with: MBP87-99 antigen).
`CC(C)C[C@@H]1NC(=O)[C@H](CC(C)C)NC(=O)[C@H](Cc2ccccc2)NC(=O)[C@@H]2CSSC[C@@H](C(=O)O)NC(=O)[C@H](CSSC[C@H](N)C(=O)N3CCC[C@H]3C(=O)N2)NC(=O)CNC1=O`: cell migration “inhibited” (THP-1; 200 µM, 18 h, Transwell, 10% serum, with: fibrinogen).
With `C[C@@H]1O[C@@H](O[C@H]2[C@H](O[C@H]3CC[C@@]4(C)C(CC[C@]5(C)C4CC=C4C6CC(C)(C)CC[C@]6(C(=O)O[C@@H]6O[C@H](CO)[C@@H](O)[C@H](O)[C@H]6O)CC[C@]45C)[C@]3(C)CO)OC[C@H](O)[C@@H]2O)[C@H](O)[C@H](O[C@@H]2OC[C@@H](O)[C@H](O)[C@H]2O)[C@H]1O` (stereo partly shown) the glucose consumption was 12 ± 0.72 mM (HepG2, palmitic acid-induced insulin resistance; 15 µM, 24 h).
For `CC1CCCN(CCCNC(=O)C2=Cc3sc4c(c3CS2)CCCC4)C1` (stereo not shown), the esterified cholesterol was 2.7 fold (COLO 320; 20 µM, 24 h; baseline: vehicle).
`CC(C)=CCc1c(O)cc2c(c1O)C(=O)OC2` has a glucose consumption of 11 ± 0.86 mM (HepG2, palmitic acid-induced insulin resistance; 15 µM, 24 h).
`COc1cccc(OC)c1OCCCn1cc(CCCNc2nc3c(c(=O)[nH]2)[n+](C)cn3C2OC(COP(=O)(O)OP(=O)([O-])OP(=O)(O)OCC3OC(n4cnc5c(=O)[nH]c(N)nc54)C(O)C3O)C(O)C2O)nn1` (stereo not shown) — result for “relative protein expression”: 1.96 and 2 (HEK293 transfected with capped mRNA; luciferase expression; baseline: m7GpppG-capped mRNA).
`CCCC[C@H](C)[C@H]1CC[C@H]2/C(=C/C=C3C[C@@H](O)C(C)[C@H](O)C3)CCC[C@]12C` (stereo partly shown) has an EC50 ratio of 10 (HL-60; cell differentiation, NBT reduction; baseline: compound over 1α,25-dihydroxyvitamin D3).
With `CC(=C(c1ccc(Cl)cc1)c1ccc(OCCCN(C)C)cc1)c1ccc(Cl)cc1` the growth inhibition was 16.3% (NCI-60 tumour cell lines; 10 µM, mean over cell lines).
For `CCOC(=O)c1nc2cc(Cl)c(Cl)cc2nc1N1CCN(C(=O)Nc2ccc(N3CCNCC3)cc2)CC1`, lactate production read “no effect” (RAW264.7, resting; 5 µM).
`COc1cc(CNC(=O)C[C@H](C)CCC=C(C)C)ccc1OCc1cn(-c2ccc(F)cc2)nn1` gave a growth percent of 69.9% (SF-268 CNS cancer cells; SRB; 10 µM, 48 h).
For `CSC(=S)N/N=C(\C)c1ccc(S(=O)(=O)N2CCC(C)CC2)cc1`, “cells in %G2/M” read 34.9% (HepG2; flow cytometry; 3.31 µM, 72 h).
The growth inhibition of `CCC(=C(c1ccc(Cl)cc1)c1ccc(OCCN2CCOCC2)cc1)c1ccc(OC)cc1` is reported as 6.9% (NCI-60 tumour cell lines; 10 µM, mean over cell lines).
Under “lowest effective concentration”, `C(=C/c1ccccc1)/c1ccccc1` is recorded as 10 µM (HL-60; apoptosis, measured: caspase-3 activity; 24 h, lowest dose with significant induction; baseline: vehicle).
For `FC(F)(F)c1ccnc(-c2cc(C(F)(F)F)ccn2)c1.FC(F)(F)c1ccnc(-c2cc(C(F)(F)F)ccn2)c1.[Cl-].[Cl-].[Ru+2].c1csc(-c2ccc(-c3ccc(-c4ccc(-c5nc6c7cccnc7c7ncccc7c6[nH]5)s4)s3)s2)c1`, “mean phototherapeutic index” read 53 (SK-MEL-28; cell viability; normoxia, with: red light 633 nm; baseline: dark EC50 over light EC50).
For `COc1cc(CNC(=O)C[C@H](C)CCC=C(C)C)ccc1OCc1cn(-c2ccccc2)nn1`, the growth percent was 62.3% (SR leukaemia cells; SRB; 10 µM, 48 h).
With `CC(=O)OC[C@H]1O[C@@H](Sc2sc(C(=O)c3ccc(Br)cc3)c(N)c2-c2nc3ccccc3s2)[C@H](OC(C)=O)[C@@H](OC(C)=O)[C@@H]1OC(C)=O` the growth was 57.6% (U-251; SRB; 10 µM, 48 h; baseline: untreated).
For `C=CC(=O)Nc1cc(Nc2nccc(-c3c(-c4cccc(OC)c4)n(C)c4ccccc34)n2)c(OC)cc1N(C)CCN(C)C`, protein level read “increased” (H1975; Western blot, measured: Bax; concentration not given, 24 h).
`O=C(/C=C/c1cccc(S(=O)(=O)NC2CCCCC2)c1)NO` has a relative potency of 0.714 (MOPC-315; cell growth; 24 h; baseline: belinostat).
`COc1cc(CNC(=O)C[C@H](C)CCC=C(C)C)ccc1OCc1cn(-c2ccc(Br)cc2)nn1` has a growth percent of 105% (OVCAR-3 ovarian cancer cells; SRB; 10 µM, 48 h).
`COc1cc([C@@H]2OC[C@@H]3[C@H]2CO[C@H]3c2cc(OC)c(O)c(OC)c2)cc(OC)c1O` has a glucose consumption of 6.47 ± 0.17 mM (HepG2, palmitic acid-induced insulin resistance; 2.5 µM, 24 h).

A few entries again:
`COc1cc(CNC(=O)C[C@H](C)CCC=C(C)C)ccc1OCc1cn(-c2ccc(F)cc2)nn1` gave a growth percent of 69.9% (SF-268 CNS cancer cells; SRB; 10 µM, 48 h).
For `CSC(=S)N/N=C(\C)c1ccc(S(=O)(=O)N2CCC(C)CC2)cc1`, “cells in %G2/M” read 34.9% (HepG2; flow cytometry; 3.31 µM, 72 h).
The growth inhibition of `CCC(=C(c1ccc(Cl)cc1)c1ccc(OCCN2CCOCC2)cc1)c1ccc(OC)cc1` is reported as 6.9% (NCI-60 tumour cell lines; 10 µM, mean over cell lines).
Under “lowest effective concentration”, `C(=C/c1ccccc1)/c1ccccc1` is recorded as 10 µM (HL-60; apoptosis, measured: caspase-3 activity; 24 h, lowest dose with significant induction; baseline: vehicle).
For `FC(F)(F)c1ccnc(-c2cc(C(F)(F)F)ccn2)c1.FC(F)(F)c1ccnc(-c2cc(C(F)(F)F)ccn2)c1.[Cl-].[Cl-].[Ru+2].c1csc(-c2ccc(-c3ccc(-c4ccc(-c5nc6c7cccnc7c7ncccc7c6[nH]5)s4)s3)s2)c1`, “mean phototherapeutic index” read 53 (SK-MEL-28; cell viability; normoxia, with: red light 633 nm; baseline: dark EC50 over light EC50).
For `COc1cc(CNC(=O)C[C@H](C)CCC=C(C)C)ccc1OCc1cn(-c2ccccc2)nn1`, the growth percent was 62.3% (SR leukaemia cells; SRB; 10 µM, 48 h).
